Results gathered from unrelated publications.
Lines come from different studies, so protocols differ. “And” joins repeats or separate records; there may be more than shown. ± marks the error that the study gave.
UCHL1: Ubiquitin carboxyl-terminal hydrolase isozyme L1 (UCHL1, Homo sapiens, UniProt P09936)
UniProt P09936, sequence (whole entry, looked up): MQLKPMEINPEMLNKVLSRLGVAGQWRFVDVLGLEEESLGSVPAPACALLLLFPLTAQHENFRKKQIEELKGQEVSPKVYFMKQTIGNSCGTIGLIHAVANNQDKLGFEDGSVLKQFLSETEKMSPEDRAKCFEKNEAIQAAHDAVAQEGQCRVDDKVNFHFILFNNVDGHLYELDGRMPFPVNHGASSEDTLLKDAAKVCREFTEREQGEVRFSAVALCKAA
Nicotinic acetylcholine receptor alpha1/beta1/epsilon/delta: Nicotinic acetylcholine receptor alpha1/beta1/epsilon/delta (Mus musculus, UniProt P02716+P04756+P09690+P20782)
UniProt Q9EP73, sequence (whole entry, looked up): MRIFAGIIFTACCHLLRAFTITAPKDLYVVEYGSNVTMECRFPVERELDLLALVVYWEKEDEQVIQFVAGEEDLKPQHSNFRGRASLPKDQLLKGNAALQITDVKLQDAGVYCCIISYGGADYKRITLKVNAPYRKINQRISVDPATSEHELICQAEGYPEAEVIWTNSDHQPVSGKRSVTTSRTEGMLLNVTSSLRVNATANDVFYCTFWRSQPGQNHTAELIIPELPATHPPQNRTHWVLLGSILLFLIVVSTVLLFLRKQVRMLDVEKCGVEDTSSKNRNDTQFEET
UniProt P20782, sequence (whole entry, looked up): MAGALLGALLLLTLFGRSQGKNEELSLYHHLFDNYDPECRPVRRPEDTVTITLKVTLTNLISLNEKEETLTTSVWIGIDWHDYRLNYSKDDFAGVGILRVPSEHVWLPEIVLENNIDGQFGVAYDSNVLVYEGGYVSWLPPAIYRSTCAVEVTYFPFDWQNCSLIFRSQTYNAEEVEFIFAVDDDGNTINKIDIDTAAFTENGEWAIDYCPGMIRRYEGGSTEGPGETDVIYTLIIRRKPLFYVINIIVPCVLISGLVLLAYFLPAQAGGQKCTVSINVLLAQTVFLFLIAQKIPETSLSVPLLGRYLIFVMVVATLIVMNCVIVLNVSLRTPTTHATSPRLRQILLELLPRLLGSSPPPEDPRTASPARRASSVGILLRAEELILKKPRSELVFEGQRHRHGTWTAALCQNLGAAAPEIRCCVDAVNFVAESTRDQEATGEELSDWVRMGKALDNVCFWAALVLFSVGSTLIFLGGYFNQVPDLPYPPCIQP
UniProt P09690, sequence (whole entry, looked up): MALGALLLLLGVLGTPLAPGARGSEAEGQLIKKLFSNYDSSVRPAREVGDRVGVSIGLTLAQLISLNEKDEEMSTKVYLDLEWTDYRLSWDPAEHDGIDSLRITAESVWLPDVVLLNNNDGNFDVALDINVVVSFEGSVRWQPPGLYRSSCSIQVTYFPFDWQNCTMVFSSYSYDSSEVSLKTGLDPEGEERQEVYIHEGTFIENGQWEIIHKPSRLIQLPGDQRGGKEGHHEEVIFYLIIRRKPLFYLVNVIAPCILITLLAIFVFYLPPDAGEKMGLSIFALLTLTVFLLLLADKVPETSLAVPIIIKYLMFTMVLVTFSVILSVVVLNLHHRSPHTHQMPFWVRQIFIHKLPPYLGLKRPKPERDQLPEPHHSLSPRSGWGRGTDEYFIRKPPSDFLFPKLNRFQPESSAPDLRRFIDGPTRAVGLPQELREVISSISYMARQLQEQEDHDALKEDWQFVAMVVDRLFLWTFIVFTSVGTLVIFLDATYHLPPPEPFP
UniProt P04756, sequence (whole entry, looked up): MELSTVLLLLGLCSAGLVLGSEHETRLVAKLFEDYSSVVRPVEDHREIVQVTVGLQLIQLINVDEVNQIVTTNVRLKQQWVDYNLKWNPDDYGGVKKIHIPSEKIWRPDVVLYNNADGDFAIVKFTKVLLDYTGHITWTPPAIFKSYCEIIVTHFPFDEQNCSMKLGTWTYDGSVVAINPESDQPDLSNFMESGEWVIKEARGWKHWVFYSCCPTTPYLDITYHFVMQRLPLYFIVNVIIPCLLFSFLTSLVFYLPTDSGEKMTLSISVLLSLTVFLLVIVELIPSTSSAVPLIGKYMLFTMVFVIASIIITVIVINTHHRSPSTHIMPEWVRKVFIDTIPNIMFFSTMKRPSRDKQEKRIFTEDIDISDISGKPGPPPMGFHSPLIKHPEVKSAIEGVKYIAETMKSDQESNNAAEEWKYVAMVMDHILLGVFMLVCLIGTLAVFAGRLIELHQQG
UniProt P02716, sequence (whole entry, looked up): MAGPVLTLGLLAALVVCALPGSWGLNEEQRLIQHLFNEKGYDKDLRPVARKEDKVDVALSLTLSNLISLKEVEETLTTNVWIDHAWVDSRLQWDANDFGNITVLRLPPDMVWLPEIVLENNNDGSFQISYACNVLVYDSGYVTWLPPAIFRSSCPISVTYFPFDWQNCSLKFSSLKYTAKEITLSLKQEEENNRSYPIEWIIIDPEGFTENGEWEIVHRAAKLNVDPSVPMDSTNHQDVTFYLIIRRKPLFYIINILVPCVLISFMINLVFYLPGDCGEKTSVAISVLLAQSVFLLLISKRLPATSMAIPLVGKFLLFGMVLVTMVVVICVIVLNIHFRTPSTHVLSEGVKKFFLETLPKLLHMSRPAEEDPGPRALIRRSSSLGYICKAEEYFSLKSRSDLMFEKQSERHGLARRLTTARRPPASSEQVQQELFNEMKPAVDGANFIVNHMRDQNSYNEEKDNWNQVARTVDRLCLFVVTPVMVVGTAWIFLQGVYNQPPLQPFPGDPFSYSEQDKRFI
UniProt Q06520, sequence (whole entry, looked up): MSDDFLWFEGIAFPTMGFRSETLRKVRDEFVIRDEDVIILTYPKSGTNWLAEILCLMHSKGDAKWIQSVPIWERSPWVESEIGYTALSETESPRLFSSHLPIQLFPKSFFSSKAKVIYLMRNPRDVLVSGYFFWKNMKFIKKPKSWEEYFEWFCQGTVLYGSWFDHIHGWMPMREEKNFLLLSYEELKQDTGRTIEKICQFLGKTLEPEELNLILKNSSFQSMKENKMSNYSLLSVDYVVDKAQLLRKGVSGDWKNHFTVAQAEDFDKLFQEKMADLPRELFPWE
UniProt O14804, sequence (whole entry, looked up): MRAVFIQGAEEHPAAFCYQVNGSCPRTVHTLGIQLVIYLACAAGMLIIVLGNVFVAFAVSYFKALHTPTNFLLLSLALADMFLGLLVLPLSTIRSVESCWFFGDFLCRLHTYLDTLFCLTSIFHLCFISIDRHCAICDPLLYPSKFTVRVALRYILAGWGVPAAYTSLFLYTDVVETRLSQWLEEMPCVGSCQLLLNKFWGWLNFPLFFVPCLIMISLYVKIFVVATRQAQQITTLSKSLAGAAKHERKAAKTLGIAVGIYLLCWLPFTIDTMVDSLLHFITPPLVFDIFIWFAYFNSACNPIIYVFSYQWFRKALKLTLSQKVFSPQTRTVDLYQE
UniProt Q9UBS0, sequence (whole entry, looked up): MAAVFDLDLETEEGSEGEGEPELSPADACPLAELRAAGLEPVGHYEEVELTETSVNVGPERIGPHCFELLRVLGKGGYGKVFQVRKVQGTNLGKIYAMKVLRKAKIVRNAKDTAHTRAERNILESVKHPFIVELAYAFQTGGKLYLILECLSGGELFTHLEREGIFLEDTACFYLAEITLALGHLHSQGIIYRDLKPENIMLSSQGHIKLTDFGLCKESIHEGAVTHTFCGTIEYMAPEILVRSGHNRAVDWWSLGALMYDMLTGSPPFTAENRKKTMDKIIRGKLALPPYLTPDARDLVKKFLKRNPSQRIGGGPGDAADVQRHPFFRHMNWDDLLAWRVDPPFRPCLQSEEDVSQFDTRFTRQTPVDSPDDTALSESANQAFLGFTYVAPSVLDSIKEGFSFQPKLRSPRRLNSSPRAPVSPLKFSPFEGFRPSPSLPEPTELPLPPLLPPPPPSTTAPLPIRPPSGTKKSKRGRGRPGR
UniProt Q09161, sequence (whole entry, looked up): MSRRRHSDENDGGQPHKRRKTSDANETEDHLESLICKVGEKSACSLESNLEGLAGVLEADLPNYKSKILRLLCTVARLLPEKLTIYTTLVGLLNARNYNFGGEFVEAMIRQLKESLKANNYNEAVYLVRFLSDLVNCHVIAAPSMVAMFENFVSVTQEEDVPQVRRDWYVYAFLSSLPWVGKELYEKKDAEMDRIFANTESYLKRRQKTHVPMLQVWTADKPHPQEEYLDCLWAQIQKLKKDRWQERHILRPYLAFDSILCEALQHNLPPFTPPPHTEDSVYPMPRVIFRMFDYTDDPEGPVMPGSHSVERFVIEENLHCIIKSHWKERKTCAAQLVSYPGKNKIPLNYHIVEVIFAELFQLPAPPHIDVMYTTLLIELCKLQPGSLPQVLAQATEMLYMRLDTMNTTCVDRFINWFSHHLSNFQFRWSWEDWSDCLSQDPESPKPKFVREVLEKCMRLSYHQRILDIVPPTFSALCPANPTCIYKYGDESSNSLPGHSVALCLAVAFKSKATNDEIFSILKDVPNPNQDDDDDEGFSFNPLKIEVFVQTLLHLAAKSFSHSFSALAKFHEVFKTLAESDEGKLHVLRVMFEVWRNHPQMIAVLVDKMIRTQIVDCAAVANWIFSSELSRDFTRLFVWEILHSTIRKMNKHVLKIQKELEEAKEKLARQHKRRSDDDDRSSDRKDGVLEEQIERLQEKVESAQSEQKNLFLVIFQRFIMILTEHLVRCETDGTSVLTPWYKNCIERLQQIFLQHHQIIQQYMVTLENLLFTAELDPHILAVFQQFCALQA
UniProt P42575, sequence (whole entry, looked up): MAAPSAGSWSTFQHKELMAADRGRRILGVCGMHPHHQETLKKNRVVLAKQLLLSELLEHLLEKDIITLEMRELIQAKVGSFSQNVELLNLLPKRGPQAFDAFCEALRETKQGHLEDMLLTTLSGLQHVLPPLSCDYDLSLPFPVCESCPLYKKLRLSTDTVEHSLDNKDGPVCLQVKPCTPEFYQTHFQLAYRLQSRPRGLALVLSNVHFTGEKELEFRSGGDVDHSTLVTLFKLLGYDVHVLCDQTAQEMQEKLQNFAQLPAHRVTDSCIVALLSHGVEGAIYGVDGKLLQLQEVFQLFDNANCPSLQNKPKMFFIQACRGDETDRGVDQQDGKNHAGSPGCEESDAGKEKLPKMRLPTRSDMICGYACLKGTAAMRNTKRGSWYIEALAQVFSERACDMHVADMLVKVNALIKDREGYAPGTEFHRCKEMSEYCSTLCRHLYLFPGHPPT

SMILES | target | assay | test system | conditions | scale | endpoint | value
COC(=O)[C@@]1(O)C[C@H]2O[C@]1(C)n1c3ccccc3c3c4c(c5c6ccccc6n2c5c31)C(=O)NC4 | MAPK3 (Homo sapiens, UniProt P27361) | ADP-Glo |  | 17.2 µM, added: substrate MBP |  | remaining activity | 108%
CC12CCC(CC1)C(C)(C)O2 | 1,8-cineole 2-endo-monooxygenase (cinA, Citrobacter braakii, UniProt Q8VQF6, Y81F) | ITC |  | 25 °C, Y81F enzyme variant |  | ΔH | 53.6 ± 4.18 kJ/mol
CN1CCN(c2cc(-c3ccncc3)c(-c3ccc4ccccc4c3)nn2)CC1 | CYSLTR2 (Homo sapiens, UniProt Q9NS75) | agonist, FLIPR |  | 12.5 µM |  | activation | -1.7%
Clc1ccc(COc2cccc(CNCc3cccnc3)c2)cc1 | aacA-aphD, AAC(6')-Ie domain (Staphylococcus aureus, UniProt P0A0C1) | neomycin acetylation, inhibitor |  | added: neomycin |  | highest concentration without inhibition | > 200 µM
O=C(O)C(F)(F)C(F)(F)C(F)(F)F | Albumin (ALB, Homo sapiens, UniProt P02768) | ITC |  | 25 °C, first binding site, added: HSA 20 µM |  | association constant | 31000 M⁻¹
CC(=O)c1cnc2ccc(-c3cc(Cl)c(O)c(Cl)c3)nc2c1N[C@H]1CC[C@H](CN(C)C)CC1 | Probable receptor-like protein kinase At4g39110 (Arabidopsis thaliana, UniProt Q9T020) | binding, SPR |  | concentration not given | reference: FER | fold change of KD | > 100
Oc1c(Cl)cc(-c2cccc(F)c2)cc1Cl | SULT2A1 (Homo sapiens, UniProt Q06520) | substrate |  | pH 7.0, 37 °C, added: PAPS 200 µM |  | Vmax | 47.7 ± 5.5 nmol/min/mg
CC[C@H](CO)Nc1nc(NCc2ccccc2)c2ncn(C(C)C)c2n1 | DYRK1A (Homo sapiens, UniProt Q13627) | KINOMEscan competition binding |  | 10 µM, primary screen | direction not given | binding score | 6.4
Cc1nc2cc(CCOCCCCCc3ccccc3)ccc2n1COCC[Si](C)(C)C | ATP2A2 (Sus scrofa, UniProt P11607) | ATPase Vmax increase, activator | pig microsomes | 0.1 to 50 µM | reference: vehicle | Emax | ~18%
Oc1ccc(/C=C/c2cc(O)cc(O)c2)cc1 | O-methyltransferase (Sorghum bicolor, UniProt A0A1B6PFV1, W279A) | isothermal titration calorimetry |  | added: SFG |  | ∆G | -26 kJ/mol
CC(=O)SCCNC(=O)CCNC(=O)[C@H](O)C(C)(C)COP(=O)(O)OP(=O)(O)OC[C@H]1O[C@@H](n2cnc3c(N)ncnc32)[C@H](O)[C@@H]1OP(=O)(O)O | gltA (Thermoplasma acidophilum, UniProt P21553) | steady-state turnover, substrate |  | saturating, added: oxaloacetate saturating |  | kcat | 6.8 s⁻¹
O=c1c2ccccc2oc2cc(OCCCCc3ccccc3)ccc12 | ache (Electrophorus electricus, UniProt O42275) | enzyme activity |  | 0.73 µM, added: substrate 3.45 mM | higher = faster reaction | reaction velocity | 0.0024 a.u.
Nc1ncc(-c2nc(N3CCOCC3)nc(N3CCOCC3)n2)c(C(F)F)n1 | FLT3 (Homo sapiens, UniProt P36888, D835Y) | KINOMEscan |  | 10 µM |  | remaining binding | 48%
O=C(Nc1cccnn1)N1CCC(=Cc2cccc(Oc3ccc(C(F)(F)F)cn3)c2)CC1 | Talin-2 (Rattus norvegicus, UniProt A0A8I5Y6H9) | competitive ABPP with azido-FP probe | rat brain soluble fraction | 0.1 µM, unit not given | reference: DMSO | probe labelling | -4.4
COc1cc(N)c(Cl)cc1C(=O)NC1CN2CCC1CC2 (stereo not shown) | TAAR5 (Homo sapiens, UniProt O14804) | β-arrestin recruitment, TANGO luminescence |  | concentration not given | reference: basal luminescence | log2 fold change | 0.354
O=C(c1ccc(Cl)cc1)N1CCN2C(=O)N(OC(=O)N3CCOc4ccccc43)C(=O)C2C1 (stereo not shown) | PREP (Homo sapiens, UniProt P48147) | enzyme activity, inhibitor, MS-based ABPP | SW-620 conditioned medium | 10 µM, 1 h, 37 °C | reference: compound over DMSO, lower = stronger inhibition | median ratio | 1.09

SMILES | target | assay | test system | conditions | scale | endpoint | value
CCOC(=O)CC(SP(=O)(OC)OC)C(=O)OCC (stereo not shown) | uncharacterized protein (Anopheles coluzzii, UniProt A0A6E8VQK1) | enzyme activity, inhibitor | Sf9 cell homogenate | 4.587 µM, 0.1667 h, added: α-naphthyl acetate substrate | reference: no inhibitor | remaining activity | 3.68%
CC1CC(C(=O)CCl)CO1 (stereo not shown) | UCHL1 | covalent, intact protein LC-MS |  | 12.5 µM |  | labelling | 16.2%
C[N+]1(C)CCN(c2ccc(C(N)=O)cc2)CC1.[I-] | Nicotinic acetylcholine receptor alpha1/beta1/epsilon/delta | ion current, inhibitor, two-electrode voltage clamp | Xenopus oocytes | 30 µM, after co-application, unit not given, added: ACh 30 µM | reference: ACh alone | ACh response | 0.547 ± 0.077
COc1cc(Nc2ncc(F)c(Nc3ccc4c(n3)NC(=O)C(C)(C)O4)n2)cc(OC)c1OC | MAP3K10 (Homo sapiens, UniProt Q02779) | binding, KINOMEscan |  | 10 µM, MLK2 kinase |  | inhibition | 100%
C[N+]1(C)CCN(c2ccc(C#N)cc2)CC1.[I-] | Nicotinic acetylcholine receptor alpha1/beta1/epsilon/delta | ion current, inhibitor, two-electrode voltage clamp | Xenopus oocytes | 30 µM, after co-application, unit not given, added: ACh 30 µM | reference: ACh alone | ACh response | 0.594 ± 0.222
CC1(CCl)CN1S(=O)(=O)c1ccccc1 (stereo not shown) | UCHL1 | covalent, intact protein LC-MS |  | 12.5 µM |  | labelling | 11.5%
CC[C@@H](C)[C@@H](NC(=O)[C@@H](Cc1ccc(O)cc1)NC(=O)[C@H]1CCCN1C(=O)[C@@H](CCCNC(=N)N)NC(=O)[C@H](N)Cc1c[nH]cn1)C(=O)N[C@H](C)C(=O)N[C@H](Cc1c[nH]cn1)C(=O)N[C@H](CCCNC(=N)N)C(=O)N[C@H](CCCCNC(=O)c1cccc(S(=O)(=O)F)c1)C(=O)N[C@H](Cc1ccc(O)cc1)C(=O)N[C@H](CO)C(=O)N[C@H](Cc1ccccc1)C(N)=O | Programmed cell death 1 ligand 1, with PD-1 (Cd274, Mus musculus, UniProt Q9EP73) | PD-1-Fc binding | MC-38 | concentration not given, 48 h |  | PD-L1 blocking rate | 9.94% and 9.39% and 11.1%
[2H]c1c([2H])c([C@]2([2H])CCCN2C(=O)C(C)(C)Oc2ccc3cn[nH]c3c2)c([2H])c([2H])c1C([2H])([2H])[2H] | DDR2 (Homo sapiens, UniProt Q16832) | KINOMEscan |  | 1 µM | reference: DMSO control | remaining binding | 83%
N#C[C@@H]1CC(F)(F)CN1C(=O)CNC(=O)c1ccnc2ccc(OCCCN3CCN(C(=O)CN4CCN(CC(=O)[O-])CCN(CC(=O)[O-])CC4)CC3)cc12.[18F-].[Al+3] | Fibroblast activation protein alpha (Rattus norvegicus, UniProt A0A9K3Y732) | PET | rat standard diet control | intravenous, 0.05 MBq/g, 30 min, seventh week |  | myocardial SUVmax | 1.06 ± 0.19
C[C@H]1CN(c2n[nH]c3nc(N[C@H]4CC[C@H](NS(=O)(=O)CCC(F)(F)F)CC4)ncc23)CCO1 | Nuclear cap-binding protein subunit 1 (Homo sapiens, UniProt Q09161) | Kinobeads competition, item: NCBP1 |  | 0.032 µM, unit not given | reference: vehicle | remaining binding | 1.09
CN[C@@H]1C[C@H]2O[C@@](C)([C@@H]1OC)n1c3ccccc3c3c4c(c5c6ccccc6n2c5c31)C(=O)NC4 | TRPM8 (Homo sapiens, UniProt Q7Z2W7) | antagonist | HEK293 | 5 µM | reference: control | remaining activity | 113 ± 10.7%
COc1cccc(-c2nsc(=O)o2)c1 | PSMB5 (Homo sapiens, UniProt P28074) | enzyme inactivation, inhibitor | human PA28-activated proteasome |  |  | kobs/[I] | 14.8 M⁻¹ s⁻¹
CC[C@H](C)[C@H](NC(C)=O)C(=O)N[C@@H](CCC(=O)O)C(=O)N[C@H](C(=O)N[C@H](C=O)CC(=O)O)[C@@H](C)O | Caspase-2 (Homo sapiens, UniProt P42575) |  |  |  |  | Hill slope | -0.68
COc1ccc(N2C(=O)N(c3c(C)cccc3Cl)Cc3cnc(Nc4ccc(C5CCN(C)CC5)cc4OC)nc32)nc1 | RPS6KB2 (Homo sapiens, UniProt Q9UBS0) | kinase activity, inhibitor |  | 0.5 µM, kinase P70S6K2 |  | inhibition | -5%
O=C(Nc1ccccc1)[C@@H]1CS[C@H]2CS[C@H](CS)N21 | sfhI (Serratia fonticola, UniProt Q9RMI1) | activity class |  | concentration not given |  | activity | inactive
